Experimental data pooled from the literature.
Each numbered part is a random draw from the data of one study; scales do not carry over between parts. Substitutions count along the parent as printed.

Sample 1
Target: Runt-related transcription factor 3, Runt domain (RUNX3, Homo sapiens, UniProt Q13761, residues 53-186)
Technique: protein-binding microarray
Molecule type: hairpin DNA
Medium: in vitro
Tested at: not given
Notes: whole hairpin DNA, median over replicate spots
Baseline: not given
Direction: higher = stronger binding
With `GAGGCCTGGTGCGGTTGGCCTCCTGGCCAACCGCACCAGGCCTCACACTC` the median fluorescence was 6140 a.u.
With `CTCAGTTCTCTGGGCTGGACTCCTGTCCAGCCCAGAGAACTGAGACACTC` the median fluorescence was 3880 a.u.
With `GAGGCCTGTCGCGCGTGGCCTCCTGGCCACGCGCGACAGGCCTCACACTC (5mC at 14)` the median fluorescence was 5680 a.u.
For `GAGGCCTCTCGCGGTTGGCCTCCTGGCCAACCGCGAGAGGCCTCACACTC (5mC at 8)`, the median fluorescence was 5800 a.u.
`CTCAGTTCTGTGGGCGGGACTCCTGTCCCGCCCACAGAACTGAGACACTC (5mC at 15)` has a median fluorescence of 4630 a.u.
For `GAGGCCCCACCGCAACAGCCTCCTGGCTGTTGCGGTGGGGCCTCACACTC`, the median fluorescence was 6920 a.u.
`CTCAGTTCTGTGGGCGGGACTCCTGTCCCGCCCACAGAACTGAGACACTC (5mC at 29)` has a median fluorescence of 4130 a.u.
`GAGGCCTGTTGCGGTTGGCCTCCTGGCCAACCGCAACAGGCCTCACACTC (5mC at 31)` gave a median fluorescence of 5250 a.u.
With `GAGGCCTCTCGCGGTTGGCCTCCTGGCCAACCGCGAGAGGCCTCACACTC` the median fluorescence was 5770 a.u.
`GAGGCCTGTTGTCGTTGGCCTCCTGGCCAACGACAACAGGCCTCACACTC` gave a median fluorescence of 4370 a.u.
`GAGGCCCGACCGCAACAGCCTCCTGGCTGTTGCGGTCGGGCCTCACACTC (5mC at 7 37)` gave a median fluorescence of 8350 a.u.
The median fluorescence of `GAGGCCCAACCCGAACAGCCTCCTGGCTGTTCGGGTTGGGCCTCACACTC (5mC at 32)` is reported as 5020 a.u.
With `CTCAGTTCTGTGGGCCGGACTCCTGTCCGGCCCACAGAACTGAGACACTC (5mC at 16 28)` the median fluorescence was 4120 a.u.
`GAGGCCCAAACGCAACAGCCTCCTGGCTGTTGCGTTTGGGCCTCACACTC` has a median fluorescence of 4740 a.u.
The median fluorescence of `GAGGCCTGTCGCGGTGGGCCTCCTGGCCCACCGCGACAGGCCTCACACTC` is reported as 5520 a.u.
For `GAGGCCTGTTGCGGTTTGCCTCCTGGCAAACCGCAACAGGCCTCACACTC`, the median fluorescence was 9890 a.u.

Sample 2
Target: ABI1, truncated, D143A, DHFR fusion (Arabidopsis thaliana)
Technique: DHFR PCA, deep sequencing
Medium: yeast
Notes: methotrexate growth selection, single substitutions
Added: (+)-ABA 0.39 µM
Baseline: wild-type fitted maximum
Direction: higher = stronger binding
Starting sequence: PYL1, truncated, DHFR fusion (Arabidopsis thaliana); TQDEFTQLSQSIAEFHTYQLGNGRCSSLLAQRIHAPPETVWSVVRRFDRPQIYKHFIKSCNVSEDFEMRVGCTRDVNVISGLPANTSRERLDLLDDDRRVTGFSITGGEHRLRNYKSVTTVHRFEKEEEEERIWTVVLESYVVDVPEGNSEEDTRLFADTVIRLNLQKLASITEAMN
`D75K` — result for “relative binding score”: 30.9%.
For `V70E`, “relative binding score” read 16.4%.
`K168R` — result for “relative binding score”: 38.1%.
For `R74C`, “relative binding score” read -16.4%.
`P37V`: “relative binding score” 25.4%.
For `G148E`, “relative binding score” read -13.2%.
`A13F`: “relative binding score” 9.2%.
`T119H`: “relative binding score” -7.19%.
For `V161L`, “relative binding score” read 70.4%.
Under “relative binding score”, `G21C` is recorded as 31.1%.
`Q10P` — result for “relative binding score”: 47.2%.
`K116R` — result for “relative binding score”: 51.2%.
For `P50H`, “relative binding score” read -15.3%.
`T86S` — result for “relative binding score”: 52.7%.
Under “relative binding score”, `A175P` is recorded as 1.34%.
`T39C` — result for “relative binding score”: 28.3%.
Under “relative binding score”, `G107N` is recorded as 7.75%.
`T154M` — result for “relative binding score”: 4.21%.
`Y53Q`: “relative binding score” -6.28%.
`E130C` — result for “relative binding score”: 47.2%.
Under “relative binding score”, `Q10G` is recorded as 50.2%.
`F157C` — result for “relative binding score”: 10.9%.

Sample 3
Target: CCNE1, cyclin fold, Cln2 fusion (human)
Technique: yeast growth competition, sequencing
Medium: yeast
Notes: weak parent motif
Baseline: not given
Direction: higher = stronger binding
Starting sequence: PKN2 docking peptide (human); VSAVQKLDFSDTM
For `L7R`, “normalised enrichment score” read 0.2.
`K6V`: “normalised enrichment score” 0.846.
For `V1D`, “normalised enrichment score” read 0.531.
`M13W`: “normalised enrichment score” 1.19.
`M13Q` — result for “normalised enrichment score”: 0.122.
`Q5A L7A` — result for “normalised enrichment score”: 0.17.
For `A3G`, “normalised enrichment score” read -0.0579.
`V4H`: “normalised enrichment score” -0.0124.
`A3C` — result for “normalised enrichment score”: 0.825.
`A3Y` — result for “normalised enrichment score”: 0.372.
For `T12G`, “normalised enrichment score” read 0.49.
`A3H`: “normalised enrichment score” 0.38.
`D11W` — result for “normalised enrichment score”: 0.96.
`T12Q` — result for “normalised enrichment score”: 0.559.
`S10W` — result for “normalised enrichment score”: 0.531.
For `S2W`, “normalised enrichment score” read 0.787.
`V4K`: “normalised enrichment score” 0.0379.
Under “normalised enrichment score”, `L7P` is recorded as -0.314.
`L7N`: “normalised enrichment score” 0.0174.
For `D11I`, “normalised enrichment score” read -0.251.

Sample 4
Target: Histone acetyltransferase KAT6A, winged helix 2, GST fusion (KAT6A, Homo sapiens, UniProt Q92794, residues 85-181)
Technique: protein binding microarray
Molecule type: double-stranded DNA, one strand shown
Medium: in vitro
Tested at: not given
Notes: 8-mer, flanks averaged, mean of 2 arrays, mostly near background
Baseline: not given
Direction: higher = stronger binding
Construct (chain): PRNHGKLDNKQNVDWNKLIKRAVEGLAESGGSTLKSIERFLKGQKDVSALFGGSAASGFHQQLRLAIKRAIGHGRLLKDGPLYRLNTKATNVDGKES
With `ATCGGCGG` the E-score was 0.149.
For `AGCACGTA`, the E-score was -0.142.
The E-score of `GTTTGACA` is reported as 0.0446.
`CCTCTCTA` has an E-score of -0.107.
The E-score of `CCCCCACA` is reported as -0.101.
`AGACGCAT` has an E-score of -0.0654.
For `AAGTCACC`, the E-score was -0.0997.
`AAACTTGT` gave an E-score of 0.0726.
With `GCCGCGGC` the E-score was 0.346.
The E-score of `GAAGGTCA` is reported as -0.156.
`GGCTTCCA` gave an E-score of -0.00918.
The E-score of `CTCAGATC` is reported as 0.0119.
`ACTCAAGC` gave an E-score of -0.0695.
The E-score of `GCAATGTA` is reported as -0.12.
`AGTTGCTG` has an E-score of 0.0319.
With `GACGTCCC` the E-score was -0.078.
`AGCGTCGC` has an E-score of 0.144.
With `TAAAGTTA` the E-score was 0.167.
For `ACGGCGCG`, the E-score was 0.309.
For `ACTGAATG`, the E-score was -0.122.
`AATGTGAC` has an E-score of -0.0216.
For `CTCTGTCA`, the E-score was 0.0128.
For `CGCATCTA`, the E-score was 0.0951.
For `ATTTTGTC`, the E-score was -0.0168.

Sample 5
Target: RNA binding protein fox-1 homolog 2, RRM domain, GST-SBP tag (RBFOX2, Homo sapiens, UniProt O43251-10, residues 100-194)
Technique: RNA Bind-n-Seq
Molecule type: RNA
Medium: in vitro
Tested at: 365 nM
Notes: natural RNA segment, single round, ends assumed
Baseline: no-protein control
Direction: higher = stronger binding
All sequences stand within: GGGAGUUCUACAGUCCGACGAUC … UGGAAUUCUCGGGUGCCAA
Residues (chain): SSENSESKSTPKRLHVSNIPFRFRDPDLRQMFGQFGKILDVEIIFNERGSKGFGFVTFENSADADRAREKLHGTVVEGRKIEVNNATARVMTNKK
`GCCCUCUGGUUUCCCAGCGCAGCCUCUCAUACAGUGGACUGACAGCCUGCACUCUGUUUAGUCAGCCGACUCAGGUUAUCUUCAGGGAAGGUAUGGAGGCAUGGUUUGUU` — result for “RBNS enrichment (R)”: 0.567.
Under “RBNS enrichment (R)”, `CAAGAAAUACAGAGUAAAGCGAAAAUAACUGCUUACCAAUAUUCUGAGAGGUAACAAAUGGGAUAUGGGUUGAGACUGCAUAAAAAACGUACUGCUGGUUGAAUAUCUGA` is recorded as 0.32.
Under “RBNS enrichment (R)”, `CAGAUCAGCAGUCACCCAUCGCUUAGCAUAGAAAUCCCAAAACCUCCAGCCCGGGAACACUAUAAGCUUCGACCAUUCAGGAAUCUGCCCUGCACUUUGCAUAUCUGUAU` is recorded as 2.18.
`UGAGCUGCUUCUGGGUCUCACGGACCUCCUUGCAGCCCCCUUGCCCUUUCCUUGCCUUGUGUCCGGAACCUUCACACCUUUACCCCUGCGCUAGCCCCUGGCUGAGAGGA`: “RBNS enrichment (R)” 0.571.
Under “RBNS enrichment (R)”, `CUAUGUCAGAAGCAGCAGGCUUUGCUUCAGCUUGAGUUGGAGCCGUGUGAGUCUCAGGCCAGGCCCUUAUUUCUGAAUGUGUUUGAAUUUUAAGUUUGCCUUAUCAGAUA` is recorded as 1.6.
`AGUGUUUUUAUGAAACAGAGAGCCACGGAAAAUCAUAUAUGAUUCAAUCCAGAUAUGGGUUAAAUUCCUCAUUUUACUUUUAAACUGGUGGUAAAGUGGAAAUUGCAAAA` — result for “RBNS enrichment (R)”: 0.5.
For `AGUAUAGUCAAAUCAAUUGCAUAAGUAAUUUAUUUUCUACUUCUUAUGUCUGUGAUAAUUGCUUUGACUUUAUUAUCAUGUAUUAAACAGUAAUAACAAUGGGACUUAGA`, “RBNS enrichment (R)” read 0.502.
For `AGCAUUAAAGAUUAUUUUCCUUAAAUCUCUUCAAGGCCUUCUUAUUGCUGUUAGAAUAGUGUUGUAUCAGGUAUGUGACCAUUUCAGAAGGCUGAACUUACAUAGAGGUU`, “RBNS enrichment (R)” read 0.745.
`GGCUCUGCCGUGCUAAUCUUCAACGUCCAUGUCAUUGACUUCCACAACCCUGCGGAUGUGGUGGAAAUCAGGACACUGUCCCGGCCAUCUGAGACCUGCAAUGAGACCAC` — result for “RBNS enrichment (R)”: 0.247.
`CACUGAGGCAGAGACUCCUUUUGGGAGUCACUGUGGUUUAGGUUUUUUUCUCCCCAUCCCACUUAAGGUGAUGGGGCAAGGGAAGAACUCAGCUCCCCUCCCCUGAAUUA`: “RBNS enrichment (R)” 0.193.
Under “RBNS enrichment (R)”, `GAGCUUUCUGCAAAUAGCUUGAAGGAGGAAACAAUUUCUGAACACACAAGUAGCACCGUGUCGCCUCCCUUUAUCUUCAUAUUGAUAAAAGACUUUAUGUGGAUCUUGUA` is recorded as 0.278.
Under “RBNS enrichment (R)”, `AGAUAUUUAUAUCAAUUCCUACAGCUUUCCCCUGCCAUCCCUGAACUCUUUCUAGCCCUUUUAGAUUUUGGCACUGUGAAACCCCUGCUGGAAACCUGAGUGACCCUCCC` is recorded as 0.425.

Sample 6
Sequence: NTAPSLTVPECAICLQTCVHPVSLPCKHVFCYLCVKGASWLGKRCALCRQEIPEDFLDK (RNF146 RING domain (UniProt Q9NTX7))
Technique: yeast two-hybrid
Medium: yeast
Notes: mostly zero background
Baseline: not given
Direction: higher = stronger interaction
It gave 0 for “lacZ reporter activity” (BIRC6 UBC core domain (UniProt Q9NR09)).
For UBE2B UBC core domain (UniProt P63146): “lacZ reporter activity” read 0.
The “lacZ reporter activity” was 0 (UBE2E3 UBC core domain (UniProt Q969T4)).
For UBE2S UBC core domain (UniProt Q16763): “lacZ reporter activity” read 0.
UBE2Q1 UBC core domain (UniProt Q7Z7E8) — “lacZ reporter activity”: 0.
The “lacZ reporter activity” was 0 (UBE2M UBC core domain (UniProt P61081)).
The “lacZ reporter activity” was 0 (UBE2Z UBC core domain (UniProt Q9H832)).
The “lacZ reporter activity” was 0 (UBE2I UBC core domain (UniProt P63279)).
The “lacZ reporter activity” was 0 (UBE2R2 UBC core domain (UniProt Q712K3)).
For UBE2T UBC core domain (UniProt Q9NPD8): “lacZ reporter activity” read 0.
For UBE2D1 UBC core domain (UniProt P51668): “lacZ reporter activity” read 0.
The “lacZ reporter activity” was 0 (UBE2L3 UBC core domain (UniProt P68036)).
It gave 0 for “lacZ reporter activity” (UBE2O UBC core domain (UniProt Q9C0C9)).
UBE2J1 UBC core domain (UniProt Q9Y385) — “lacZ reporter activity”: 0.
UBE2J2 UBC core domain (UniProt Q8N2K1) — “lacZ reporter activity”: 0.
UBE2G1 UBC core domain (UniProt P62253) — “lacZ reporter activity”: 0.
